Measured values collected from several papers.
Every numbered part comes from another study and shows a few of its results, in no order.
Sequence of UniProt Q8TD19 (whole entry, looked up): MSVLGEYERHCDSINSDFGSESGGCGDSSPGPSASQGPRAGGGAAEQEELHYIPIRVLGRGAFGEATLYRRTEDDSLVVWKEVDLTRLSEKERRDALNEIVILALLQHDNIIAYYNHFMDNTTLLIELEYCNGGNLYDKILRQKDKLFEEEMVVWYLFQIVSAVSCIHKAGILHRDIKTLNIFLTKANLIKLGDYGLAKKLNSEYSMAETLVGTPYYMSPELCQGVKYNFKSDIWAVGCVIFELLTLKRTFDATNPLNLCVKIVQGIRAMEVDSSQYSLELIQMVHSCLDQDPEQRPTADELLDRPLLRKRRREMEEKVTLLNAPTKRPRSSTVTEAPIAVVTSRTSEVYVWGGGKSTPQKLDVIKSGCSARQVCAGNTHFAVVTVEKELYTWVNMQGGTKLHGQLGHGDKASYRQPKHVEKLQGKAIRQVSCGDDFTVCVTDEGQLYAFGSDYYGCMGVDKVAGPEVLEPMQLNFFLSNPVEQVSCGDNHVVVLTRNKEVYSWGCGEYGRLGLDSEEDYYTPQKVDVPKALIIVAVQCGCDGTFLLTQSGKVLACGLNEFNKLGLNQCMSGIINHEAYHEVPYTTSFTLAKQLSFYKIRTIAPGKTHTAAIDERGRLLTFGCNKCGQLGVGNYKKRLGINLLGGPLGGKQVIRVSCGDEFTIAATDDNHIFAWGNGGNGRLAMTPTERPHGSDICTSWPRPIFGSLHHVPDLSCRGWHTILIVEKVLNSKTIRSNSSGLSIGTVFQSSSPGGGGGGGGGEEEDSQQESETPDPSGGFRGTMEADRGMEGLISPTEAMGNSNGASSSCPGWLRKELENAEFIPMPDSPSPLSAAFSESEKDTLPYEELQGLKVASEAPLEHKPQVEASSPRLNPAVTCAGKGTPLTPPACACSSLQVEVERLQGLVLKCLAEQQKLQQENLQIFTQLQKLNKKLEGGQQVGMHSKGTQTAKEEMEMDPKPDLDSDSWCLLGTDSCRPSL
Sequence of UniProt P42336 (whole entry, unmodified, looked up): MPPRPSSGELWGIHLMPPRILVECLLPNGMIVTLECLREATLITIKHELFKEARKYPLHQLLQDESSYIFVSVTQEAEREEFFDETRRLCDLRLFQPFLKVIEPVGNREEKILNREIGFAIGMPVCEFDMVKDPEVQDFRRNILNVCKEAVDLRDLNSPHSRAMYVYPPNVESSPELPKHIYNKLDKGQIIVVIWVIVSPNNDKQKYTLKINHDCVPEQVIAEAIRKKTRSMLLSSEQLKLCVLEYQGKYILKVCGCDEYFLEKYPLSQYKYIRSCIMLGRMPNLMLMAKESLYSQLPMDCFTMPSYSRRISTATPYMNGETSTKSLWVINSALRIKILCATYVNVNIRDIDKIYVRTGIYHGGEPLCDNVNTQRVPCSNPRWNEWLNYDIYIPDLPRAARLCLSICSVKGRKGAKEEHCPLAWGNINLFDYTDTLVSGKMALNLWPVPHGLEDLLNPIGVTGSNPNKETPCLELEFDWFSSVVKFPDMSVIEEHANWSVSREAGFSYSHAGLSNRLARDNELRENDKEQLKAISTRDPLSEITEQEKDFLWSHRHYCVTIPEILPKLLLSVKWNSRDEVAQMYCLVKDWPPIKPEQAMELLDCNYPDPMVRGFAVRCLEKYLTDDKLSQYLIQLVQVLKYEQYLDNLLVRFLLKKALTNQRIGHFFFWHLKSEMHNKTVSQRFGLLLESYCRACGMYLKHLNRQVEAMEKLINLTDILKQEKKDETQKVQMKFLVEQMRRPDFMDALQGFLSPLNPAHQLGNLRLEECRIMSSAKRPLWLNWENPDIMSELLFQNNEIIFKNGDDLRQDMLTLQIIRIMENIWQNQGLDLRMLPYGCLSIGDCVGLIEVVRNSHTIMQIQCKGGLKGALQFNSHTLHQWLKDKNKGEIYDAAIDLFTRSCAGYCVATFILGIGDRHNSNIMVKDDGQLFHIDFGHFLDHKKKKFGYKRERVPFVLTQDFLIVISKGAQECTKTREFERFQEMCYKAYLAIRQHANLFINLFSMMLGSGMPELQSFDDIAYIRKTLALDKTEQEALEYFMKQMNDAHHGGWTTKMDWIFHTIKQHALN
Sequence of UniProt P48729 (whole entry, looked up): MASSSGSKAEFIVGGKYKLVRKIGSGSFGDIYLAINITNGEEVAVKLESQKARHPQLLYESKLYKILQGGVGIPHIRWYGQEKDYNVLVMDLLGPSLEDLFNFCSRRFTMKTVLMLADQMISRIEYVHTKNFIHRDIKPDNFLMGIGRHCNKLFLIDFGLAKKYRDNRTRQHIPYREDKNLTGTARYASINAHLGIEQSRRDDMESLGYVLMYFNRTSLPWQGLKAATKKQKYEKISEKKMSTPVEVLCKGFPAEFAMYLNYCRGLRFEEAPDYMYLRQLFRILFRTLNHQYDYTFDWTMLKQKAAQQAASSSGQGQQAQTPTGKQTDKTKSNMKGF
Sequence of UniProt Q13976 (whole entry, looked up): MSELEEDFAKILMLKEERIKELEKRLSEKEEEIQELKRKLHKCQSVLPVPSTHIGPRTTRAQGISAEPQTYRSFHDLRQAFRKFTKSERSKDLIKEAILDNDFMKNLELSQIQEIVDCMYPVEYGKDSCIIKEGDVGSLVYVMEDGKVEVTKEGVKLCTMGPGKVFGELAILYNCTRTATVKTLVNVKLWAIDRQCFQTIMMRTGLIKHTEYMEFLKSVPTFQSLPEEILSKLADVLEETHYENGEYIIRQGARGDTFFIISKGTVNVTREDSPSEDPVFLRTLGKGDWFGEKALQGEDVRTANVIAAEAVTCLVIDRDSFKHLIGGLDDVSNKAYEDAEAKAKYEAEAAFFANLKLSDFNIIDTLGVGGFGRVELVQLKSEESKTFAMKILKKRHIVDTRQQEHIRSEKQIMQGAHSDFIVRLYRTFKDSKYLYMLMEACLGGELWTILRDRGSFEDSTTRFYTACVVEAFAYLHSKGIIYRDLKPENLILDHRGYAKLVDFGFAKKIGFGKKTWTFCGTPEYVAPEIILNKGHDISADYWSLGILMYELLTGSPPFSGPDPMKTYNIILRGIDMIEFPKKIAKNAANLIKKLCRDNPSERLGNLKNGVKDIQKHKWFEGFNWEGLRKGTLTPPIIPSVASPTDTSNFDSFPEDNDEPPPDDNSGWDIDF
Sequence of UniProt Q9BVS4 (whole entry, looked up): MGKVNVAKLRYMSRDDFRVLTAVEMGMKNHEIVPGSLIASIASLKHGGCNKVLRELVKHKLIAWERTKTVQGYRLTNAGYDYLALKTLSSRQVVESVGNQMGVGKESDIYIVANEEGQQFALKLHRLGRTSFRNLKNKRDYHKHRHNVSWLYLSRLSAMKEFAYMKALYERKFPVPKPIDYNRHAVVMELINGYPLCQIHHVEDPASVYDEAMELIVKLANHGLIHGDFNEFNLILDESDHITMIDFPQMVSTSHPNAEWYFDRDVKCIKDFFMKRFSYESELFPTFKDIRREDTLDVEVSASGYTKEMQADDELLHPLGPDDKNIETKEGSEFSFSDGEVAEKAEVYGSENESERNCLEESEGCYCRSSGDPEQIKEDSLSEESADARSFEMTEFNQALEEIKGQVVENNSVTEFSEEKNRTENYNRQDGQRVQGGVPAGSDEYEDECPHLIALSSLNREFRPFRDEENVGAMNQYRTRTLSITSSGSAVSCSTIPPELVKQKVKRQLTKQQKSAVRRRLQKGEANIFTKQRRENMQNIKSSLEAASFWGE
Sequence of UniProt Q9Y243 (whole entry, looked up): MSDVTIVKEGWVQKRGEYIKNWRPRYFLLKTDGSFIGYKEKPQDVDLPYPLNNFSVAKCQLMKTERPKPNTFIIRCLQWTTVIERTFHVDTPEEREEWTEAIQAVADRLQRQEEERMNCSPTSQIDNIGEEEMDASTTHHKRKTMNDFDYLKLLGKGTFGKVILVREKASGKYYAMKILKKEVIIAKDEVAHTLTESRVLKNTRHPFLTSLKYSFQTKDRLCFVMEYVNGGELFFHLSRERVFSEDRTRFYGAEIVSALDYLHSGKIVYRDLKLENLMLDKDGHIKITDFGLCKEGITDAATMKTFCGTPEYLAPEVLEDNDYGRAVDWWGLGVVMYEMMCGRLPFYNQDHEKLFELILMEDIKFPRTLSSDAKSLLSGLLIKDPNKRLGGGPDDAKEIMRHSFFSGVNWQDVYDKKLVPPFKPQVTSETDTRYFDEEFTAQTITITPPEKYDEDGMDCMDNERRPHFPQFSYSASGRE
Sequence of UniProt O14757 (whole entry, looked up): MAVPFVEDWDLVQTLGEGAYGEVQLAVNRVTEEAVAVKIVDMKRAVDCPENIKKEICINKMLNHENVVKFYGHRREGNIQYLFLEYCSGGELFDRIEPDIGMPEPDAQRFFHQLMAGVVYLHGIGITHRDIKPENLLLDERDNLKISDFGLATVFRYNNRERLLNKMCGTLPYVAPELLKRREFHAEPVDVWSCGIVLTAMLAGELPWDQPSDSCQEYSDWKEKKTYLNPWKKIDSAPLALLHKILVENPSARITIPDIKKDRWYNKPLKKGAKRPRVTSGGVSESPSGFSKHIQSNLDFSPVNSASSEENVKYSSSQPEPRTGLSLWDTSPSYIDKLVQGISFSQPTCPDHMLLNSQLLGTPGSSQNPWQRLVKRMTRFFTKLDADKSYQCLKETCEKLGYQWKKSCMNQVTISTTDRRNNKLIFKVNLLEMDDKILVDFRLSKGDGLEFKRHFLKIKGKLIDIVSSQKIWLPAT

Sample 1
Compound: Cc1nc(Nc2ncc(C(=O)Nc3c(C)cccc3Cl)s2)cc(N2CCN(CCO)CC2)n1
Observed: enzyme activity
Mode: inhibitor
Tested at: 0.5 µM
Baseline: control
Dual specificity mitogen-activated protein kinase kinase 6 (MAP2K6, Homo sapiens, UniProt P52564) — remaining activity: 95.2%.
For Tyrosine-protein kinase Lyn (LYN, Homo sapiens, UniProt P07948): remaining activity read 0.427%.
The remaining activity was 89.9% (RAC-gamma serine/threonine-protein kinase (AKT3, Homo sapiens, UniProt Q9Y243)).
Cyclin-dependent kinase 9, with cyclin T1 (CDK9, Homo sapiens, UniProt P50750) — remaining activity: 84.1%.
It gave 99.9% for remaining activity (Mitogen-activated protein kinase 12 (MAPK12, Homo sapiens, UniProt P53778)).
It gave 105% for remaining activity (Casein kinase II subunit alpha (CSNK2A1, Homo sapiens, UniProt P68400)).
The remaining activity was 84.6% (cGMP-dependent protein kinase 1 (PRKG1, Homo sapiens, UniProt Q13976)).
The remaining activity was 99.4% (Leucine-rich repeat serine/threonine-protein kinase 2 (LRRK2, Homo sapiens, UniProt Q5S007)).
It gave 101% for remaining activity (Protein kinase C iota type (PRKCI, Homo sapiens, UniProt P41743)).
It gave 96% for remaining activity (Serine/threonine-protein kinase Chk1 (CHEK1, Homo sapiens, UniProt O14757)).
Casein kinase I isoform alpha (CSNK1A1, Homo sapiens, UniProt P48729) — remaining activity: 98.2%.

Sample 2
SMILES: C=CC(=O)N1CCC([C@@H]2CCNc3c(C(N)=O)c(-c4ccc(Oc5ccccc5)cc4)nn32)CC1
Tested at: 1 µM
It gave 7% for inhibition (Phosphatidylinositol 4,5-bisphosphate 3-kinase catalytic subunit alpha isoform (PIK3CA, Homo sapiens, UniProt P42336, E545A); enzyme activity, inhibitor).
The inhibition was 27% (Mitogen-activated protein kinase kinase kinase kinase 5 (MAP4K5, Homo sapiens, UniProt Q9Y4K4); enzyme activity, inhibitor).
The inhibition was 7% (Hepatocyte growth factor receptor (MET, Homo sapiens, UniProt P08581, Y1235D); cell-free assay).
For Mitogen-activated protein kinase kinase kinase 9 (MAP3K9, Homo sapiens, UniProt P80192); enzyme activity, inhibitor: inhibition read 13%.
For Protein kinase C epsilon type (PRKCE, Homo sapiens, UniProt Q02156); enzyme activity, inhibitor: inhibition read 17%.
For Tyrosine-protein kinase ABL1, phosphorylated (ABL1, Homo sapiens, UniProt P00519, T315I); enzyme activity, inhibitor: inhibition read 0%.
For Membrane-associated tyrosine- and threonine-specific cdc2-inhibitory kinase (PKMYT1, Homo sapiens, UniProt Q99640); enzyme activity, inhibitor: inhibition read 21%.
It gave 14% for inhibition (Serine/threonine-protein kinase Nek9 (NEK9, Homo sapiens, UniProt Q8TD19); enzyme activity, inhibitor).
The inhibition was 19% (Serine/threonine-protein kinase BRSK2 (BRSK2, Homo sapiens, UniProt Q8IWQ3); enzyme activity, inhibitor).
Serine/threonine-protein kinase N1 (PKN1, Homo sapiens, UniProt Q16512); enzyme activity, inhibitor — inhibition: 35%.

Sample 3
Compound: CC(C)CC(=O)N1CCc2nc(-c3ccc(Br)cc3)nc(N(C)Cc3ccccc3)c2C1
Observed: cell-free assay
Technique: competition with immobilised ligand
Tested at: 0.1 µM
It gave 100% for remaining binding (Serine/threonine-protein kinase tousled-like 2 (TLK2, Homo sapiens, UniProt Q86UE8)).
It gave 100% for remaining binding (Serine/threonine-protein kinase RIO2 (RIOK2, Homo sapiens, UniProt Q9BVS4)).
Epidermal growth factor receptor (EGFR, Homo sapiens, UniProt P00533, L861Q) — remaining binding: 100%.
LIM domain kinase 1 (LIMK1, Homo sapiens, UniProt P53667) — remaining binding: 100%.
Casein kinase I isoform alpha (CSNK1A1, Homo sapiens, UniProt P48729) — remaining binding: 73%.
For Tyrosine-protein kinase ABL1, phosphorylated (ABL1, Homo sapiens, UniProt P00519): remaining binding read 66%.
It gave 100% for remaining binding (Mitogen-activated protein kinase kinase kinase 4 (MAP3K4, Homo sapiens, UniProt Q9Y6R4)).
The remaining binding was 100% (Serine/threonine-protein kinase RIO3 (RIOK3, Homo sapiens, UniProt O14730)).
cGMP-dependent protein kinase 1 (PRKG1, Homo sapiens, UniProt Q13976) — remaining binding: 74%.
It gave 100% for remaining binding (Mitogen-activated protein kinase kinase kinase 6 (MAP3K6, Homo sapiens, UniProt O95382)).
The remaining binding was 53% (Tyrosine-protein kinase ABL1, non-phosphorylated (ABL1, Homo sapiens, UniProt P00519, Q252H)).
Epidermal growth factor receptor (EGFR, Homo sapiens, UniProt P00533, T790M) — remaining binding: 74%.
It gave 100% for remaining binding (Serine/threonine-protein kinase Nek9 (NEK9, Homo sapiens, UniProt Q8TD19)).
It gave 97% for remaining binding (Mast/stem cell growth factor receptor Kit (KIT, Homo sapiens, UniProt P10721, A829P)).
For Serine/threonine-protein kinase STK11 (STK11, Homo sapiens, UniProt Q15831): remaining binding read 100%.
The remaining binding was 87% (Phosphatidylinositol 4,5-bisphosphate 3-kinase catalytic subunit alpha isoform (PIK3CA, Homo sapiens, UniProt P42336, C420R)).
For Ribosomal protein S6 kinase alpha-1, C-terminal kinase domain (RPS6KA1, Homo sapiens, UniProt Q15418): remaining binding read 100%.
It gave 100% for remaining binding (Bone morphogenetic protein receptor type-1B (BMPR1B, Homo sapiens, UniProt O00238)).
The remaining binding was 100% (Macrophage colony-stimulating factor 1 receptor (CSF1R, Homo sapiens, UniProt P07333)).

Sample 4
Target: Calcium/calmodulin-dependent protein kinase type II subunit alpha (CAMK2A, Homo sapiens, UniProt Q9UQM7)
Sequence of UniProt Q9UQM7 (whole entry, looked up): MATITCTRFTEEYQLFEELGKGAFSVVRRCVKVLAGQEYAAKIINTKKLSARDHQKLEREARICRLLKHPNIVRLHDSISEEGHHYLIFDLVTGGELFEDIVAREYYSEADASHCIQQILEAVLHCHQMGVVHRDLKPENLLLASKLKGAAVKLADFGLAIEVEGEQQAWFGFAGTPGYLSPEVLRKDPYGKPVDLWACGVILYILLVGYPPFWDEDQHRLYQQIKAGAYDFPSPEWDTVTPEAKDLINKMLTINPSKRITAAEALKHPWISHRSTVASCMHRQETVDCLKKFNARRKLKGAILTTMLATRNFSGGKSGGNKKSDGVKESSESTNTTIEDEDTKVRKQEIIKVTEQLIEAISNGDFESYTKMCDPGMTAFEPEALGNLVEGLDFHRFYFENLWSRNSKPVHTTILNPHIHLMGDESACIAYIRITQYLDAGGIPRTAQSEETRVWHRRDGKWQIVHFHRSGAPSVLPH
Observed: enzyme activity
Mode: inhibitor
Tested at: 10 µM
CCCCCCCCCCCCCCCC(=O)O gave an inhibition of 26%.
O=c1c(O)c(-c2ccc(O)c(O)c2)oc2c(O[C@@H]3O[C@H](CO)[C@@H](O)[C@H](O)[C@H]3O)c(O)cc(O)c12 gave an inhibition of 7%.
For O=C(NCCO[N+](=O)[O-])c1cccnc1, the inhibition was 3%.
CC(=O)c1ccc(O)c(O)c1 gave an inhibition of -15%.
CC/C=C\C/C=C\C/C=C\CCCCCCCC(=O)OCC has an inhibition of -26%.
C[C@@H]1CC[C@]2(C(=O)O[C@@H]3O[C@H](CO)[C@@H](O)[C@H](O)[C@H]3O)CC[C@]3(C)C(=CC[C@@H]4[C@@]5(C)CC[C@H](O[C@@H]6OC[C@H](O)[C@H](O)[C@H]6O)C(C)(C)[C@@H]5CC[C@]43C)[C@@H]2[C@]1(C)O has an inhibition of 0%.
COc1cccc2c1C(=O)c1c(O)c3c(c(O)c1C2=O)C[C@@](O)(C(=O)CO)C[C@@H]3O[C@H]1C[C@H](N)[C@H](O[C@@H]2CCCCO2)[C@H](C)O1 has an inhibition of 0%.
CC(C)(CO)[C@@H](O)C(=O)NCCCO has an inhibition of 13%.
CN1CCN(C2=Nc3cc(Cl)ccc3Nc3ccccc32)CC1 has an inhibition of -13%.

A few entries again (sample 4):
CCCCCCCCCCCCCCCC(=O)O gave an inhibition of 26%.
O=c1c(O)c(-c2ccc(O)c(O)c2)oc2c(O[C@@H]3O[C@H](CO)[C@@H](O)[C@H](O)[C@H]3O)c(O)cc(O)c12 gave an inhibition of 7%.
For O=C(NCCO[N+](=O)[O-])c1cccnc1, the inhibition was 3%.
CC(=O)c1ccc(O)c(O)c1 gave an inhibition of -15%.
CC/C=C\C/C=C\C/C=C\CCCCCCCC(=O)OCC has an inhibition of -26%.
C[C@@H]1CC[C@]2(C(=O)O[C@@H]3O[C@H](CO)[C@@H](O)[C@H](O)[C@H]3O)CC[C@]3(C)C(=CC[C@@H]4[C@@]5(C)CC[C@H](O[C@@H]6OC[C@H](O)[C@H](O)[C@H]6O)C(C)(C)[C@@H]5CC[C@]43C)[C@@H]2[C@]1(C)O has an inhibition of 0%.
